Results gathered from unrelated publications.
Each numbered part is a random draw from the data of one study; scales do not carry over between parts.

Study 1
Target: RNA binding protein fox-1 homolog 2, RRM domain, GST-SBP tag (RBFOX2, Homo sapiens, UniProt O43251-10, residues 100-194)
Technique: RNA Bind-n-Seq
Molecule type: RNA
Medium: in vitro
Concentration: 365 nM
Notes: natural RNA segment, single round, ends assumed
Baseline: no-protein control
Reading: higher = stronger binding
Measurement: RBNS enrichment (R)
Constant ends, left off below: GGGAGUUCUACAGUCCGACGAUC … UGGAAUUCUCGGGUGCCAA
Target sequence (chain): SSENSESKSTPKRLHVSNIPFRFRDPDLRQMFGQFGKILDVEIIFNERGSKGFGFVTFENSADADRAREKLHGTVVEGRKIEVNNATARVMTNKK
AUCCCUUCCCAGCAAUGAUGACAGGAAAAUGGAAGUGGCAAGUUUUCCUUCUAGUAUCCGAAGAAUCUGAGCCUUCAAUGUUAAAAUUUUUCUUAAUUAAAAUGUGCUUU: 0.495
ACUCCAGCGGCCCUGGCGCGUGGCUCCUGCAUAGCUAGCCCAAGCCAAUAAAGGGCUGUGAUGAGUGGCUGCGCCUGUGCUCUGCUUGUGCACGGACUCUGGGACUCUCA: 0.258
CGGUGGGUGUUCCAUUUUUAUCCGCUACUCUUUAUUUCAUGGAGUCGUAUCAACGCUAUGAACGCAAGGCUGUGAUAUGGAACCAGAAGGCUGUUUGAACUUUUGAAACC: 0.272
CUUGAUUUUUGUCAGCUAAUUACAUAAUUGGUAAGCUAUAAUUGAAACCUUAUGGCUUAAAAUUCCUUAACUCCUUUUUGAUUCAUGUUUGUAGUCAUGUUGUCAACAGA: 0.474
UUAAAUGACACUCUUCCUUUAGAAUAUAACGGAUCAGUACUCAUGUUUAAUUGCCAUGCUUAAUAAAUCAUGAGAACAAAAGAGUAUAGAAUGGAAAGCAUUCCCUGGUA: 0.559
AUGCACUGAGUAUGCAAUGCUAUCACUGUCUUUGACUGUGAUUUUAUGUUUAAAAAGUAUGUUCUAAAAUUAUUAUAUAUACAUGGGUGAAUUAUGUUUCCGAGGCACUG: 0.572
ACUUAAUUGAUUGGUUGUCCCAAGUGUUGCUCUUACUUGAUUUGCCAAAUGCCUCCUGCUUCUCGUUAUAGGACUGAGUGAGGUCCUCAUAGCUCUGUGCUCUGGGCAGC: 0.264
AUUUUUUUGGUUAAGACUUUUUCAUUGAUCUGAAUUGCUUAAAUUGCAUAUAUUGUAAAAUAGGAUCAGAUGUAUAUUUUAAACUAAUUUCAAUGGAUUUUCCUCUUGAA: 0.726
AGGAACUGCUGGCCGAGCCCGCUGGGAGUCUAGAAAGAGAAAAUCUGUUUCUAGACCUCAGUUAUUUUCCCAUUUUUGGUUGUUUUGAAGCAGUAACAUUUUUCUCAGUG: 0.349
CCCCUCAAAGCCUUCAGCCACCUCCGCCACUCAGGAACUGGAUAGACUGAUGGCCUCGCUCUCUGACUUCCGUGUUCAGAACCAUGUUCCAGCCUCAGGGCCACCUCAGC: 0.144
AGAUGCUUGCAAGCAGAGUCAGGGUCACCAGUGAAUGCCACAAAAGUUCUCUUUCCCACUGUUUAAUUUGACAAGAGAAGAAUUUGAAGGAUAUGAACAUUUUCAAGAAC: 0.954
UGGAAAAUGGACAAAAAAUAGAGAGAGAGGUAUUUAACUGCAAUAAACUGGCCAGUGUGGCCCCGCCUGUCUGUCUGUGUGUCCAUGUUGGGCAUGGGGUUGGGUAGGGU: 2.52

Study 2
Target: Fragile X messenger ribonucleoprotein 1, C-terminal low-complexity region (Fmr1, Mus musculus, UniProt P35922)
Technique: RNA Bind-n-Seq
Molecule type: RNA
Medium: in vitro
Concentration: 200 nM
Notes: whole 134-nt RNA, ends assumed
With: 150 mM KCl
Baseline: input library
Reading: higher = stronger binding
Measurement: log2 enrichment
Constant ends, left off below: GGGAGUUCUACAGUCCGACGAUC … UGGAAUUCUCGGGUGUCAAGG
UCAAGUCCUGUGCUACACAUCGUAUGUACCGAAUCGGCCCGGGGCCCGGGCCCGGAAAGUAUUAUGUUACGCCGUUCGGAUCUGCACUUC: -1.16
CACAGACAACACGCACCCACACAGACACAGGGGGAAGGGGUUGGGAUGGGGACAGGGUGCACAGCAGGGCGGGGUAGGACCCCAGCCCCU: 1.3
UUCUUGCCUAUGCUGUGCGCCACACCAUCCAGGUGUACCGGCUCUCCAAGUACAACACGGAAGAAUUCAUCACAGUCUACCCCACCGACC: 0.335
CCUCAAGUCCUGUGCUACACAUCGUAUGUACCGAAUCGGUUUGGUUUGGUGGAAAGUAUUAUGUUACGCCGUUCGGAUCUGCACUUCCAG: -0.314
AGUCCUGUGCUACACAUCGUAUGUACCGAAUCGGAAAGGAAAAAAAGGUUUUUUUGGAAAGUAUUAUGUUACGCCGUUCGGAUCUGCACU: -1.26
CUCAAGUCCUGUGCUACACAUCGUAUGUACCGAAUCGGUUUGGGUUUGGUUUGGAAAGUAUUAUGUUACGCCGUUCGGAUCUGCACUUCC: -0.257
UCCUCAAGUCCUGUGCUACACAUCGUAUGUACCGAAUCGGUGGAGGAAAGGAAAGUAUUAUGUUACGCCGUUCGGAUCUGCACUUCCAGC: -0.392
CCUGUGCUACACAUCGUAUGUACCGAAUCGGGGUUUUUGGGGUUUGGGGUUUUUUUGGGGAAAGUAUUAUGUUACGCCGUUCGGAUCUGC: 0.495
UGGAAGGUGGAUUUUGUUUAUUUUUUUAGCUCAUUUCCAGGGGUGGGAAUUUUUUUUUAAUAUGUGUCAUGAAUAAAGUUGUUUUUGAAA: 0.0989
UAGCUUUAGAGGAGGAUCUGAUGGAUAUGGCAGUGGACGUGGAUUUGGGGAUGGCUAUAAUGGGUAUGGAGGAGGACCUGGAGGUGGCAA: 0.277
UGGGAGGUGGAUUUUGUUUAUUUUUUUAGCUCAUUUCCAGGGGUGGGAAUUUUUUUUUAAUAAGUGUCAUGAAUAAAGUUGUUUUUGAAA: 0.215
AAGUCCUGUGCUACACAUCGUAUGUACCGAAUCGGAAAAGGGGAAAAGGAAAAGGGAAAGUAUUAUGUUACGCCGUUCGGAUCUGCACUU: -0.606
UCAAGUCCUGUGCUACACAUCGUAUGUACCGAAUCGGGAAAGGGAAAGGGUGGGAAAGUAUUAUGUUACGCCGUUCGGAUCUGCACUUCC: 1.09
CACAGACAACACGCACCCACACAGACACAGAGGGAAGGGGUUGGGAUGGGGACAGGGUGCACUGCAGGGCGGGGUAGGACCCCAGCCCCU: 1.29

Study 3
Target: Sal-like protein 4, full length isoform A (SALL4, Homo sapiens, UniProt Q9UJQ4, residues 1-1053)
Sequence of UniProt Q9UJQ4 (whole entry, looked up): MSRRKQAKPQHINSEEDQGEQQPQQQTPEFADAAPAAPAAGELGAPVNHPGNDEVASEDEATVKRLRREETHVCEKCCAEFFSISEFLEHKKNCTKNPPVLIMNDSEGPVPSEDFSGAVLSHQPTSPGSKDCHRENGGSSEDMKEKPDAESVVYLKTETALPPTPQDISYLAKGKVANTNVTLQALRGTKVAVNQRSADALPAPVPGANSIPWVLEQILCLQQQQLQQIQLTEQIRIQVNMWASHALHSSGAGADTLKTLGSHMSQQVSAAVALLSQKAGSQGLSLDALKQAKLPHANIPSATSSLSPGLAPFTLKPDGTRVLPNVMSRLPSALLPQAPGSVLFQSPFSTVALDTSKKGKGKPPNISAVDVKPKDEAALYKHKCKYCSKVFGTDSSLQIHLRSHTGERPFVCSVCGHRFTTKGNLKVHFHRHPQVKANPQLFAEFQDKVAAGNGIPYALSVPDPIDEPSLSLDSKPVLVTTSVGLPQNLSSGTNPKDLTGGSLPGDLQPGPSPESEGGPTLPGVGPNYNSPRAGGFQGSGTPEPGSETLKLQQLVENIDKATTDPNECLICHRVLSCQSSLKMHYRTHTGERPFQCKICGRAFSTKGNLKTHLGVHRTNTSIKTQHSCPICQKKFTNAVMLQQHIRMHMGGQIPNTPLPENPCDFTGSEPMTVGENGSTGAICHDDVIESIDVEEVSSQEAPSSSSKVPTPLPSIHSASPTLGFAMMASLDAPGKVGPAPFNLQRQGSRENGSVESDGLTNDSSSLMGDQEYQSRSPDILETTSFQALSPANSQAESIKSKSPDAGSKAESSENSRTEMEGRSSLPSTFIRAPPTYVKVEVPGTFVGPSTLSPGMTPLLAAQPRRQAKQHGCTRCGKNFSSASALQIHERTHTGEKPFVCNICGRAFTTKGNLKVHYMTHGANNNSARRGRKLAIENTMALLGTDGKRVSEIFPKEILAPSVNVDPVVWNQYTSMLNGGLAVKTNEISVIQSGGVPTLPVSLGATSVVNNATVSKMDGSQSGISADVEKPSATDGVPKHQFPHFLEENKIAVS
Technique: universal PBM
Molecule type: double-stranded DNA, one strand shown
Medium: in vitro
Concentration: 600 nM
Notes: 8-mer, flanks averaged, mean of replicates
Reading: higher = stronger binding
Measurement: E-score
TCTCCGAA: -0.0701
ATCCGATG: -0.00775
ACCTACTG: -0.000915
CAGGATTC: 0.0565
GCGCTTGA: -0.0816
GGACACAC: -0.223
CCCTAACC: -0.277
AATGACCT: 0.129
CCCGTACC: -0.294
ACGGCCCT: -0.293
GATTGAAC: 0.0185
ACTATGCG: 0.0205
ACCCAGTA: -0.116
ACCTCATG: -0.072
GCTGTGAC: -0.156
ACTGCAGG: -0.219
TAAGTTAA: 0.298
GGACCACC: -0.261
CATAATTC: 0.379
CTAGAAGC: -0.136
TGAATACA: 0.297
GACCACAC: -0.141
AAATGACA: 0.179
GCCAGACA: -0.0333
GATTGGAC: -0.00242

Study 4
Target: Interferon regulatory factor 7, full length, phosphomimetic (IRF7, Homo sapiens, UniProt Q92985, residues 1-503, S101K/S471D/S472D/S475D/S476D/S477D/S483D/S484D/S487D)
Sequence of UniProt Q92985 (whole entry, unmodified, looked up): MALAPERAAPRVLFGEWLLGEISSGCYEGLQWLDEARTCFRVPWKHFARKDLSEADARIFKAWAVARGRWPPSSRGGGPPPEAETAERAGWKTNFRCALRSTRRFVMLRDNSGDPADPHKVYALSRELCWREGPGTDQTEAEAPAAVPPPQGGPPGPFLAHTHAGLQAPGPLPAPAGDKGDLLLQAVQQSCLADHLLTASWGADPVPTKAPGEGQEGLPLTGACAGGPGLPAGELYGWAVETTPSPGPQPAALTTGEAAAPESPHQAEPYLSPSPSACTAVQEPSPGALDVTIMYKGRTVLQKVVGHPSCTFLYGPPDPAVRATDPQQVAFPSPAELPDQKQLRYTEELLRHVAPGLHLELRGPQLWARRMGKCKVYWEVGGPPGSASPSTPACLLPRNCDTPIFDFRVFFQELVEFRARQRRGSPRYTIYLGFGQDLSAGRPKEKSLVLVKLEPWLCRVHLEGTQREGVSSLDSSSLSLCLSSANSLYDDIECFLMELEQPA
Technique: protein-binding microarray
Molecule type: double-stranded DNA, one strand shown
Medium: in vitro
Concentration: 250 nM
Notes: 60-bp whole probe
With: salmon DNA 0.4 mg/ml
Baseline: random background probes
Reading: higher = stronger binding
Measurement: log fluorescence
Constant ends, left off below: GCCTAGCAC … GTCTTGATTCGCTTGACGCTGCTG
GACGGTTTCGACACTGAGGACGTGCTA: 3.82 z-score
TCATTTTGAGTTTTCCTACTGTGCTAG: 1.53 z-score
TAACTAATATTAAATATGTAGTGCTAG: 0.146 z-score
GGGTCTTCAGGTTCTCCCCCAGTGCTA: 0.123 z-score
GACGGACTGCGGTTTCGGGACGTGCTA: 1.88 z-score
AGATGCCAAGAGGCATGATGGTGCTAG: -0.413 z-score
GACGGTCTGGACTATCGGGACGTGCTA: -0.593 z-score
CTGCTCCTCTTTTTTTGGTAGTGCTAG: 0.199 z-score
GACGGACTGGATATCGGGACGTGCTAG: -0.523 z-score
GTGGCTCACACCTGTCATCCCGTGCTA: -0.452 z-score
TTAGGTCTCGGTCACGGTTAGTGCTAG: 0.836 z-score
TTACATATCAGTTTCGATTAGTGCTAG: 8.68 z-score
TGAACTTGGAATTTCCCTCTGTGCTAG: 0.029 z-score
TCAACTCAGCACTTTGGCACTGTGCTA: -0.869 z-score
ATTGAGAATTCCACTCCGCTGTGCTAG: -0.0863 z-score
TTAGGTTTCCTTTTCCTTTGGTGCTAG: 6.37 z-score
GACGGTTTCGGGACTGGAGACGTGCTA: 4.1 z-score
GACGGACTGGACTATCGAGACGTGCTA: -0.442 z-score

Excerpt of the above (study 3):
AAATGACA: 0.179
ACGGCCCT: -0.293
GACCACAC: -0.141
AATGACCT: 0.129
CCCTAACC: -0.277
ACCTACTG: -0.000915
GGACACAC: -0.223
GGACCACC: -0.261
